# Assay results pooled from the literature.
# Compare with care: the assays were run in different laboratories. Values joined by “and” are separate records of one study, mostly repeats; a detail may differ.
SMILES,organism,assay,test system,conditions,how to read,measurement,value
FC(F)(F)c1cccc(CNc2nc(NC3CCN(Cc4ccccc4)CC3)c3nc[nH]c3n2)c1,Cryptococcus neoformans,"RNA-seq, measured: YMR1 (CNAG_00390) mRNA",,"48 µg/mL, 3 h",baseline: untreated wild type,log2 fold change,-0.623
CC1(C)[C@H](NC(=O)/C(=N\OCc2cc(=O)c(O)cn2O)c2csc(N)n2)C(=O)N1OS(=O)(=O)O,Enterobacter cloacae,agar dilution,ATCC 43560 susceptible,,,MIC,0.06 µg/mL
c1ccc(CN2CCOCCOCCN(CCCCCCCCCCCCN3CCOCCOCCN(CCCCCCCCCCCCN4CCOCCOCCN(Cc5ccccc5)CCOCCOCC4)CCOCCOCC3)CCOCCOCC2)cc1,Klebsiella pneumoniae,,ATCC BAA-2146,"half MIC, together with: ciprofloxacin",,FIC index,0.75
Nc1nc(-c2ccccc2)nc2[nH]nc(Nc3cccc(F)c3)c12,Human rhinovirus 8,"cytopathic effect, inhibitor",HeLa,,,IC50,14.4 µM
C=CCO/N=C(\C(=O)N[C@@H]1C(=O)N(OS(=O)(=O)O)C1(C)C)c1nsc(N)n1,Enterobacter cloacae,agar dilution,"ATCC 43560, susceptible",,,MIC,0.25 µg/mL
CCC1(CC)CC(=O)N(C2c3cc(C(=O)NC4c5ccccc5CC4O)ccc3OC2(C)COC)C(=N)N1 (centres unmarked),Plasmodium falciparum,standard membrane feeding,NF54 stage V gametocytes,25 nM,,mosquito midgut oocyst incidence,decreased
Fc1ccc2c(c1)c1nc3ccc(Br)cc3c-1cn2Cc1cn(-c2ccccc2I)nn1,Giardia duodenalis trophozoites,"UHPLC-Q-TOF-MS metabolomics, measured: lauric acid ethyl ester",,"IC50, 0.01783 h",baseline: 0.25% DMSO,fold change,2.7
COc1ccc(Nc2n[nH]c3nc(-c4ccccc4)nc(N)c23)cc1OC,Human rhinovirus 8,"cytopathic effect, inhibitor",HeLa,,,IC50,12.4 µM
Cc1c(CN(C)C(=O)/C=C/c2cnc3c(c2)CC(N)C(=O)N3)oc2ccccc12 (centres unmarked),Escherichia coli,"microbial growth, broth dilution",MG1655,clinical isolate,,MIC,4 µg/mL
Cc1nc2ccc(C(F)(F)F)cn2c1C(=O)NCc1ccc2oc(-c3ccc(Cl)cc3)nc2c1,Mycobacteroides abscessus,RFP fluorescence,"ATCC 19977, RFP reporter",,,MIC90,> 100 µM
COc1cc(C(=O)O)ccc1NC(=O)c1ccc(NC(=O)c2ccc(NC(=O)[C@H](Cc3c[nH]nn3)NC(=O)c3ccc(NC(=O)/C(C)=C/c4ccc(O)cc4)cc3)cc2)c(OC)c1O,Enterococcus faecium,broth microdilution,ciprofloxacin-resistant,,,MIC,16 µg/mL
Nc1nc(-c2ccccc2)nc2[nH]nc(Nc3cc(F)c(F)c(F)c3)c12,Human rhinovirus 8,"cytopathic effect, inhibitor",HeLa,,,IC50,5.05 µM
Cc1nc2cc(Br)ccn2c1C(=O)NCc1ccc2oc(-c3ccc(Cl)cc3)nc2c1,Mycobacteroides abscessus,RFP fluorescence,"ATCC 19977, RFP reporter",,,MIC90,> 100 µM
COC1C=COC2(C)Oc3c(C)c(O)c4c(c3C2=O)C2=NC3(CCN(CC(C)C)CC3)NC2=C(NC(=O)C(C)=CC=CC(C)C(O)C(C)C(O)C(C)C(OC(=O)Nc2cnccn2)C1C)C4=O (centres unmarked),Mycobacteroides abscessus,bacterial growth,subsp. abscessus K21 clinical isolate,,,IC90,0.214 µM
Cc1cccc2c1N(C(=O)n1ccnn1)CC2,Arabidopsis thaliana,,"wild type, seeds","100 µM, high ambient temperature",,germination rate,0% and 4.5% and 50% and 65.1% and 16.1% and 7.7%
C=C[C@]1(C)C[C@@H](OC(=O)CSc2ccc(NC(=O)c3ccco3)cc2)[C@]2(C)[C@H](C)CC[C@]3(CCC(=O)[C@H]32)[C@@H](C)[C@@H]1O,Mycoplasma gallisepticum,,infected chickens,"intramuscular, 20 mg/kg daily x3, scale 0 to 4",direction not given,air sac lesion score,2 and 1 and 3
C#CCNC(=O)C1(O/N=C(\C(=O)N[C@@H]2C(=O)N(OS(=O)(=O)O)C2(C)C)c2csc(N)n2)CC1,Enterobacter cloacae,agar dilution,ATCC 43560 susceptible,,,MIC,1 µg/mL
C=C(NC(=O)c1csc(-c2nc3c(cc2O)-c2nc(cs2)C(=O)NC(C(C)O)C(=O)NC(=C(C)OC)c2nc(cs2)C(=O)NC2c4nc(cs4)C(=O)NC(COC(=O)c4c5c6c(cccc6n4O)COC(=O)C(OC4CC(C)(O)C(N(C)C)C(C)O4)C2OC5)c2nc-3cs2)n1)C(N)=O (centres unmarked),Streptococcus pneumoniae,,"-25, immunocompromised mice, lung infection","2 mg/kg/day, twice daily, 24 h post-dose",,lung bacterial load,4.03 log CFU/g
CCc1ccc(-c2nc(N)c3c(Nc4ccccc4)n[nH]c3n2)cc1,Human rhinovirus 8,"cytopathic effect, inhibitor",HeLa,,,IC50,3.18 µM
OC(Cn1cncn1)(Cn1cc(-[c-]2cccc2)nn1)c1ccc(F)cc1F.[Cl-].[Co+3].c1cc[cH-]c1 (racemic),Trichuris muris,Worminator,adult males and females,"100 µM, day 0",,motility inhibition,37%
CC1CC2(N=CCS2)C2(O)OC3CC4(C)C(CC3OC2O1)CC1OC12C4C(O)C(=O)C1(C)C(C3=CC(=O)OC3)CCC12O (centres unmarked),Oncopeltus fasciatus,,,"diet, concentration not given",,time to adulthood,24.1 days
Cc1nc2cc(OC(F)(F)F)ccn2c1C(=O)NCc1ccc2oc(-c3ccc(Cl)cc3)nc2c1,Mycobacteroides abscessus,RFP fluorescence,"ATCC 19977, RFP reporter",,,MIC90,> 100 µM
CN(C)c1ccc(Nc2n[nH]c3nc(-c4ccccc4)nc(N)c23)cc1,Human rhinovirus 8,"cytopathic effect, inhibitor",HeLa,,,IC50,36.5 µM
CCc1nc2cc(C(F)(F)F)ccn2c1C(=O)NCc1ccc2oc(-c3ccc(OC(F)(F)F)cc3)nc2c1,Mycobacteroides abscessus,RFP fluorescence,"ATCC 19977, RFP reporter",,,MIC90,> 50 µM
Nc1nc(-c2ccccc2)nc2[nH]nc(Nc3ccc(O)cc3)c12,Human rhinovirus 8,"cytopathic effect, inhibitor",HeLa,,,IC50,44.3 µM
CNCc1ccc2c(c1)C[C@H](CNC(=N)N)[C@H]2NC(=O)C(=O)Nc1ccc(Cl)c(F)c1,HIV-1,"viral infection, Env pseudovirus neutralization","TZM-bl, CRF01_AE",,,IC80,> 100 µM
CC(=O)OC[C@H]1O[C@@H](Sc2sc(C(=O)c3ccc(Br)cc3)c(N)c2-c2nc3ccccc3s2)[C@H](OC(C)=O)[C@@H](OC(C)=O)[C@@H]1OC(C)=O,human alphaherpesvirus 1,plaque reduction,,non-toxic concentration,,viral titre reduction,80%
Nc1nc(-c2ccccc2)nc2[nH]nc(Nc3cccnc3)c12,Human rhinovirus 8,"cytopathic effect, inhibitor",HeLa,,,IC50,4.29 µM
Cc1ccn2c(C(=O)NCc3ccccc3)c(C)nc2c1,Mycobacteroides abscessus,RFP fluorescence,"ATCC 19977, RFP reporter",,,MIC90,> 100 µM
CC(=O)OC[C@H]1O[C@@H](Sc2sc(C(=O)c3ccc(C)cc3)c(N)c2-c2nc3ccccc3s2)[C@H](OC(C)=O)[C@@H](OC(C)=O)[C@H]1OC(C)=O,human alphaherpesvirus 1,plaque reduction,,non-toxic concentration,,viral titre reduction,80%
CCc1nc2cc(OC(F)(F)F)ccn2c1C(=O)NCc1ccc2oc(-c3ccc(OC(F)(F)F)cc3)nc2c1,Mycobacteroides abscessus,RFP fluorescence,"ATCC 19977, RFP reporter",,,MIC90,> 50 µM
Nc1c(C(=O)c2ccc(Br)cc2)sc(S)c1-c1nc2ccccc2s1,human alphaherpesvirus 1,plaque reduction,,non-toxic concentration,,viral titre reduction,20%
CCOc1c(NC(=O)c2ccc(NC(=O)c3ccc(NC(=O)[C@H](Cc4c[nH]nn4)NC(=O)c4ccc(NC(=O)/C(C)=C/c5ccc(O)cc5)cc4)cc3)c(OCC)c2O)ccc(C(=O)O)c1O,Enterococcus faecium,broth microdilution,ciprofloxacin-sensitive,,,MIC,0.25 µg/mL
Nc1nc(-c2cccc(C(F)(F)F)c2)nc2[nH]nc(Nc3ccccc3)c12,Human rhinovirus 8,"cytopathic effect, inhibitor",HeLa,,,IC50,4.32 µM
CC(C)(C)NCC(SS(=O)(=O)O)c1ccccc1 (centres unmarked),Schistosoma mansoni,perfusion day 44,infected Swiss Webster mice,"600 mg/kg single dose, 1056 h, dosed day 15 post-infection",baseline: vehicle control,liver weight decrease,40%

# Some of these lines once more:
SMILES,organism,assay,test system,conditions,how to read,measurement,value
C=C(NC(=O)c1csc(-c2nc3c(cc2O)-c2nc(cs2)C(=O)NC(C(C)O)C(=O)NC(=C(C)OC)c2nc(cs2)C(=O)NC2c4nc(cs4)C(=O)NC(COC(=O)c4c5c6c(cccc6n4O)COC(=O)C(OC4CC(C)(O)C(N(C)C)C(C)O4)C2OC5)c2nc-3cs2)n1)C(N)=O (centres unmarked),Streptococcus pneumoniae,,"-25, immunocompromised mice, lung infection","2 mg/kg/day, twice daily, 24 h post-dose",,lung bacterial load,4.03 log CFU/g
CCC1(CC)CC(=O)N(C2c3cc(C(=O)NC4c5ccccc5CC4O)ccc3OC2(C)COC)C(=N)N1 (centres unmarked),Plasmodium falciparum,standard membrane feeding,NF54 stage V gametocytes,25 nM,,mosquito midgut oocyst incidence,decreased
